Experimental data gathered from unrelated publications.
“And” joins repeats or separate records; there may be more than shown. ± gives the spread as reported.
cqsS: CAI-1 autoinducer sensor kinase/phosphatase CqsS (cqsS, Vibrio cholerae serotype O1, UniProt Q9KM66)
Sequence of UniProt Q9KM66 (whole entry, looked up): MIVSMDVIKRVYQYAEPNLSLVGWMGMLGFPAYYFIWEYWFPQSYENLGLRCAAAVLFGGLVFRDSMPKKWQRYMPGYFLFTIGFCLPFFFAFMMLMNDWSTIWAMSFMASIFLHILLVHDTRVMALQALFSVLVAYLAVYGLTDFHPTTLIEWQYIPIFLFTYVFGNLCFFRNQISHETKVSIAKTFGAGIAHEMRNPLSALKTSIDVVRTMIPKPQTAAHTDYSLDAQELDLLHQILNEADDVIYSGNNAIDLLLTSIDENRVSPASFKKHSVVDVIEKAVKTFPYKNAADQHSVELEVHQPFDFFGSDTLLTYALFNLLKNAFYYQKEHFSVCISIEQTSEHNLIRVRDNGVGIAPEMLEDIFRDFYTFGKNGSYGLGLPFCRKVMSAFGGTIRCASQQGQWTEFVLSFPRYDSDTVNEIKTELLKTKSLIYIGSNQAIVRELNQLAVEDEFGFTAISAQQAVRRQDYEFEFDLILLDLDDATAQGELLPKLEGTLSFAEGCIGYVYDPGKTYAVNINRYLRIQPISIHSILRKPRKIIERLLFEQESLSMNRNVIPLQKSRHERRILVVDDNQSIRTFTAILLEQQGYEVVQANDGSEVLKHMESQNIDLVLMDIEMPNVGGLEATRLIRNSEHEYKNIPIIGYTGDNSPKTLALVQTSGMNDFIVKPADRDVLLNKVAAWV
CNR1: Cannabinoid receptor 1 (CNR1, Homo sapiens, UniProt P21554)
Sequence of UniProt P21554 (whole entry, looked up): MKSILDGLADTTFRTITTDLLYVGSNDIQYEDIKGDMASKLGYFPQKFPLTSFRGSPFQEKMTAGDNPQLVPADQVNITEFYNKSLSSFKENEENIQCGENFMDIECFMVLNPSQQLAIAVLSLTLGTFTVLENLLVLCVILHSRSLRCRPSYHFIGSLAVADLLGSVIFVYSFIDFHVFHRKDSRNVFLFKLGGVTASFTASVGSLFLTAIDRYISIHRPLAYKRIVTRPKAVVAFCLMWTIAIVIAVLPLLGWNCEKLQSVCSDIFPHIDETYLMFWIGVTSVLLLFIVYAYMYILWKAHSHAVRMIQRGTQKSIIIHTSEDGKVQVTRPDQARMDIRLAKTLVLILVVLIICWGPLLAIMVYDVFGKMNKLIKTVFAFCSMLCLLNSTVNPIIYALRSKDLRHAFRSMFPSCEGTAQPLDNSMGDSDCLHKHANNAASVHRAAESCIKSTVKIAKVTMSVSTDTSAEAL
Gastric inhibitory polypeptide receptor: Gastric inhibitory polypeptide receptor (Mus musculus, UniProt Q0P543)
Sequence of UniProt P07148 (whole entry, looked up): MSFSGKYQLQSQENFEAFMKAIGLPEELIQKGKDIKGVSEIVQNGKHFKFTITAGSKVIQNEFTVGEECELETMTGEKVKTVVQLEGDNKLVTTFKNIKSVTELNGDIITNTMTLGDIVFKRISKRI
Sequence of UniProt Q0P543 (whole entry, looked up): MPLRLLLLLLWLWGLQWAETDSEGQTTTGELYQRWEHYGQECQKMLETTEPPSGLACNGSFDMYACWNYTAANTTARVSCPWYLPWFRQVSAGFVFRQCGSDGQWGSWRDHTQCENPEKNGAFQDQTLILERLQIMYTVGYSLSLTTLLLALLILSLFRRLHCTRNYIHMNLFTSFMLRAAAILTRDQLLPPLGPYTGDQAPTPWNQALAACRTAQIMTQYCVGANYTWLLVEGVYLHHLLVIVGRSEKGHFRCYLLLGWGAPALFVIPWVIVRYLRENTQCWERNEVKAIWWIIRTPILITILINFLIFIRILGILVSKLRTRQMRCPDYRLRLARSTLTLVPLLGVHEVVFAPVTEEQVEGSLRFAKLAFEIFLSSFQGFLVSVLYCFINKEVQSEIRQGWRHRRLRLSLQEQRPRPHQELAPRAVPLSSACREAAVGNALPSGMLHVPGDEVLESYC
Sequence of UniProt P20309 (whole entry, looked up): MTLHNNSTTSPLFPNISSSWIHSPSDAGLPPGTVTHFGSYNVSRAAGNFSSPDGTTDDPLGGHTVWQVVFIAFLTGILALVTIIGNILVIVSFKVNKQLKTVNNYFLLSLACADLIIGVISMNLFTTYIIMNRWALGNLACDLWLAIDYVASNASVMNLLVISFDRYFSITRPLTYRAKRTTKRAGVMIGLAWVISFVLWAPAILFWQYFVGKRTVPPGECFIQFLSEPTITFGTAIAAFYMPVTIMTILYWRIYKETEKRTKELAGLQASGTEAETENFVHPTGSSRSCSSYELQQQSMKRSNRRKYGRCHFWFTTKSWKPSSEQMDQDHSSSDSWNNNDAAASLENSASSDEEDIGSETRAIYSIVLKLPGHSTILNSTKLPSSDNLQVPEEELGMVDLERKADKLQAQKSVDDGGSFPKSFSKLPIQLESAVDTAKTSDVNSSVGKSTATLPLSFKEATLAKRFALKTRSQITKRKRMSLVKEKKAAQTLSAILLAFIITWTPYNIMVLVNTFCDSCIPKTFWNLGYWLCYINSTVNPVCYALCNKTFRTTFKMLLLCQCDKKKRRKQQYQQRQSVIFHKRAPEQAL
Sequence of UniProt P9WMN3 (whole entry, looked up): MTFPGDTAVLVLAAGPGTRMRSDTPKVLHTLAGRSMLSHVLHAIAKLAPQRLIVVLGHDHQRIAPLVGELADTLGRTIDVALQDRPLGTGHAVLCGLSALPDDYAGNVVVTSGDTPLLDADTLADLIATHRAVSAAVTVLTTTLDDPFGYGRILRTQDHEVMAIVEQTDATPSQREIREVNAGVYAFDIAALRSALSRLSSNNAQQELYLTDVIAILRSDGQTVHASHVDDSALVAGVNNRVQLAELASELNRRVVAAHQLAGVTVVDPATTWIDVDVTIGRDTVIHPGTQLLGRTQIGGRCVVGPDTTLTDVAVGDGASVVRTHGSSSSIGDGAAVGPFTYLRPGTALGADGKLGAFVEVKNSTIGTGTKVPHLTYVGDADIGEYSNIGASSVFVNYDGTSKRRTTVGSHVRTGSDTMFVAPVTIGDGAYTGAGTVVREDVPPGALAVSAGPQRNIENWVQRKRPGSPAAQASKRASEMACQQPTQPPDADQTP
Sequence of UniProt P07445 (whole entry, unmodified, looked up): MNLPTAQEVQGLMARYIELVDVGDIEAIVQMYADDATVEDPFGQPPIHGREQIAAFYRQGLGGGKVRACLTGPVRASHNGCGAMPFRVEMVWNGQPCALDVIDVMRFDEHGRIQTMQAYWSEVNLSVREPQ
Sequence of UniProt Q9ULT6 (whole entry, looked up): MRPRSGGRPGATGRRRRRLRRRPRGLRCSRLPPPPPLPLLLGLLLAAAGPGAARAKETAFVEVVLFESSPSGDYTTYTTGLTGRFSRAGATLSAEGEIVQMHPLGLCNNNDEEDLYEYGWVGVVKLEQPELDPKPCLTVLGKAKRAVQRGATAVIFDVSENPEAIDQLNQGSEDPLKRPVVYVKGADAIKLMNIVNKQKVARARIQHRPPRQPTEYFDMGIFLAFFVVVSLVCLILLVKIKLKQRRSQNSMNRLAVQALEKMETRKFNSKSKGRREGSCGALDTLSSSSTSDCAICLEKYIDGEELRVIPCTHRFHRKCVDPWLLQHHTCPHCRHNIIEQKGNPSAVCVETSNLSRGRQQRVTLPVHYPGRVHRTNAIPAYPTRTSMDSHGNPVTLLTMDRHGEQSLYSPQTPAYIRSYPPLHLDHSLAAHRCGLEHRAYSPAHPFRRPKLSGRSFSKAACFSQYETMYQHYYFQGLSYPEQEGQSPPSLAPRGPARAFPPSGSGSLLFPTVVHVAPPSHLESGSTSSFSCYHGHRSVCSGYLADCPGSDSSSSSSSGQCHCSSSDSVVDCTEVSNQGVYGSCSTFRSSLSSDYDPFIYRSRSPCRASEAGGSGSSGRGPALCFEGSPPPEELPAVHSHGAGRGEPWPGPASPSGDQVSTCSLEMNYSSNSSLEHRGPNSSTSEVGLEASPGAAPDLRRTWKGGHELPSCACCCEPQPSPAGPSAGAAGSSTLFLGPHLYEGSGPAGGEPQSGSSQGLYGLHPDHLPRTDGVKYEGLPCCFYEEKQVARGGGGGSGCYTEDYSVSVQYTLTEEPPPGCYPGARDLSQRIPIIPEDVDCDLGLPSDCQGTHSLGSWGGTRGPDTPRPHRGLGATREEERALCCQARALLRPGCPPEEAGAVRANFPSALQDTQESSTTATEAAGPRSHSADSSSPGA
Sequence of UniProt P46098 (whole entry, looked up): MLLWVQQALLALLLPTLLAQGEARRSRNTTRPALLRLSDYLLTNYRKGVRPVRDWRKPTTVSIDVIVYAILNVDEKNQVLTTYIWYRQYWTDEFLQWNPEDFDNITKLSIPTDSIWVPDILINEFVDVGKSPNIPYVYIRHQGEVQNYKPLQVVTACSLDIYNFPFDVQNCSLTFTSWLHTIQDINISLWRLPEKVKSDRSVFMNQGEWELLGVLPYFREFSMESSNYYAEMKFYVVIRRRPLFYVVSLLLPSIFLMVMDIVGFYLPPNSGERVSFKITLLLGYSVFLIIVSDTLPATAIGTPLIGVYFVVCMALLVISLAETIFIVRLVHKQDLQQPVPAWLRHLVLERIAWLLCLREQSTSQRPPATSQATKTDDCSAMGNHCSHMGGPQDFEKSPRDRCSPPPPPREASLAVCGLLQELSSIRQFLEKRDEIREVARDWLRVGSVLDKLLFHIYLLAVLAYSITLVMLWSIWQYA

| Compound | target | assay | test system | setting | quantity | result |
| --- | --- | --- | --- | --- | --- | --- |
| CC1(C)OC2OC(C(CCO)NC(=O)Nc3cccc(NC(=O)NC(CCO)C4OC5OC(C)(C)OC5C4OCc4ccccc4)c3)C(OCc3ccccc3)C2O1 (stereo not drawn) | DNA ligase A (Mycobacterium tuberculosis, UniProt P9WNV1) | enzyme activity, inhibitor | – | – | Ki | 98300 nM |
| N#Cc1c(N)nc(SCc2ncc[nH]2)c(C#N)c1-c1ccc(O)cc1 | Adenosine receptor A2a (ADORA2A, Homo sapiens, UniProt P29274) | binding | – | – | Ki | 13 nM |
| CC[C@H](C)[C@@H]1NC(=O)[C@@H]2CCCN2C(=O)[C@H](CCCNC(=N)N)NC(=O)[C@H](CCC(=O)O)NC(=O)[C@@H]2CSSC[C@@H]3NC(=O)[C@H](CCCCN)NC(=O)[C@H](CCCCN)NC(=O)[C@H](CC(N)=O)NC(=O)[C@H](CC(C)C)NC(=O)[C@H](CCCNC(=N)N)NC(=O)[C@H](CC(N)=O)NC(=O)[C@@H](NC(=O)CN)CSSC[C@H](NC(=O)[C@H](CSSC[C@@H](C(=O)N[C@@H](CCCNC(=N)N)C(=O)N4CCC[C@H]4C(=O)N[C@@H](CC(=O)O)C(=O)N[C@H](C(=O)NCC(=O)N4CCC[C@H]4C(=O)O)C(C)C)NC(=O)[C@H](Cc4ccc(O)cc4)NC(=O)[C@H](CCSC)NC(=O)[C@H](Cc4ccc(N=[N+]=[N-])cc4)NC(=O)[C@H](CCCCN)NC(=O)[C@H](Cc4c[nH]c5ccccc45)NC(=O)CNC1=O)NC(=O)[C@H](CC(=O)O)NC(=O)[C@H](C)NC(=O)[C@H](CC(=O)O)NC(=O)[C@H](CO)NC(=O)[C@H](CC(N)=O)NC3=O)C(=O)N[C@@H](C)C(=O)N[C@@H](CC(N)=O)C(=O)N[C@@H](CCCCN)C(=O)N[C@@H](CCC(=O)O)C(=O)N[C@@H](CCCCN)C(=O)N2 | E3 ubiquitin-protein ligase ZNRF3 (ZNRF3, Homo sapiens, UniProt Q9ULT6) | binding | – | pH 7.4 | Kd | 326 ± 19 nM |
| CC1=C[C@H]2c3c(O)cc(CCc4ccccc4)cc3OC(C)(C)[C@H]2CC1 | Cannabinoid receptor 2 (CNR2, Homo sapiens, UniProt P34972) | ligand displacement, radioligand | – | cell membranes | Ki | 225 nM |
| CC12CCC3C(CC=C4CC(O)CCC43C)C1CCC2=O (stereo not drawn) | Steroid Delta-isomerase (Pseudomonas putida, UniProt P07445, D40N) | tryptophan fluorescence quenching | – | 10% DMSO | Kd | 300 nM |
| CCOC(=O)C1C(OC(c2ccc(Cl)cc2)c2ccc(Cl)cc2)CC2CCC1N2C (single isomer, unassigned) | Muscarinic acetylcholine receptor M3 (CHRM3, Homo sapiens, UniProt P20309) | ligand displacement, radioligand | – | – | Ki | 1920 nM |
| Cc1cc(O)cc(-c2nc(Nc3cc(C(F)(F)F)cc(C(F)(F)F)c3)ncc2-c2ccnc(-c3cccnc3)c2)c1 | Proto-oncogene tyrosine-protein kinase Src (SRC, Homo sapiens, UniProt P12931) | biochemical | – | – | EC50 | > 100000 nM |
| C=C[C@]1(C)CC[C@@]2(C)c3cc(O)c(O)c(C)c3CC[C@@H]2C1 | Bifunctional protein GlmU (glmU, Mycobacterium tuberculosis, UniProt P9WMN3) | surface plasmon resonance | – | – | Kd | 15700 nM |
| C/C=C(\N)C(=O)CCCCCCCCC | cqsS | agonist | Vibrio cholerae, wild type | – | EC50 | 4 ± 3 nM |
| CCCCCn1cc(C(=O)c2cccc3c2CC(C)(C)C3)c2ccccc21 | CNR1 | G protein activation, agonist, BRET | – | – | EC50 | 69.2 nM |
| Fc1ccccc1CCNCc1cccc(Cl)c1Cl | Sodium-dependent noradrenaline transporter (SLC6A2, Homo sapiens, UniProt P23975) | ligand displacement in cells, radioligand | – | – | Ki | 841 nM |
| C/C=C(\N)C(=O)CCCCCCCCCCCC | cqsS | bioluminescence, agonist | Vibrio cholerae | – | EC50 | > 5000 nM |
| CSCC[C@@H](C=O)NC(=O)[C@H](CC(C)C)NC(=O)[C@H](CC(C)C)NC(C)=O | Replicase polyprotein 1ab, main protease (Human coronavirus OC43, UniProt P0C6X6) | enzyme activity, inhibitor | – | – | Ki | 230 nM |
| Nc1ncnc2c1c(-c1ccc3c(c1)CCN3C(=O)Cc1cccc(OC(F)(F)F)c1)cn2CCCNC(=O)CCc1ccc2n1[B-](F)(F)[N+]1=C(c3ccc[nH]3)C=CC1=C2 | Receptor-interacting serine/threonine-protein kinase 1 (RIPK1, Homo sapiens, UniProt Q13546) | binding, TR-FRET | – | – | Kd | 443 nM |
| CC[C@H](C)[C@H](NC(=O)[C@H](CO)NC(=O)[C@H](Cc1ccc(O)cc1)NC(=O)[C@H](CC(=O)O)NC(=O)[C@H](CO)NC(=O)[C@@H](NC(=O)[C@H](Cc1ccccc1)NC(=O)[C@@H](NC(=O)CNC(=O)[C@@H]1CCCN1C(=O)[C@H](C)NC(=O)[C@@H](N)Cc1ccc(O)cc1)[C@@H](C)O)[C@@H](C)CC)C(=O)N[C@@H](C)C(=O)N[C@@H](CCSC)C(=O)N[C@@H](CC(=O)O)C(=O)N[C@@H](CCCCN)C(=O)N[C@H](C(=O)N[C@@H](CCCNC(=N)N)C(=O)N[C@@H](CCC(N)=O)C(=O)N[C@@H](CCC(N)=O)C(=O)N[C@@H](CC(=O)O)C(=O)N[C@@H](Cc1ccccc1)C(=O)N[C@H](C(=O)N[C@@H](CC(N)=O)C(=O)N[C@@H](Cc1c[nH]c2ccccc12)C(=O)N[C@@H](CC(C)C)C(=O)N[C@@H](CC(C)C)C(=O)N[C@@H](C)C(=O)N[C@@H](CCC(N)=O)C(=O)N[C@@H](CCCNC(=N)N)C(=O)NCC(=O)N[C@@H](CCCCN)C(=O)N[C@@H](CCCCN)C(=O)N[C@@H](CO)C(=O)N[C@@H](CC(=O)O)C(=O)N[C@@H](Cc1c[nH]c2ccccc12)C(=O)N[C@@H](CCCCN)C(=O)N[C@@H](Cc1c[nH]cn1)C(=O)N[C@@H](CC(N)=O)C(=O)N[C@H](C(=O)N[C@H](C(=O)N[C@@H](CCC(N)=O)C(=O)O)[C@@H](C)O)[C@@H](C)CC)C(C)C)[C@@H](C)CC | Gastric inhibitory polypeptide receptor | agonist | – | – | EC50 | 29 nM |
| CC1=CC(C)=[N+]2C1=Cc1ccc(CCC(=O)NCCOCCOCCOCCOCC(=O)N[C@H](C(=O)N3C[C@H](O)C[C@H]3C(=O)NCc3ccc(-c4scnc4C)cc3)C(C)(C)C)n1[B-]2(F)F | von Hippel-Lindau disease tumor suppressor, with elongin B/C (VHL, Homo sapiens, UniProt P40337) | binding, TR-FRET | – | 210 min, added: BODIPY FL VH032 | Kd | 2.96 nM |
| O=C(N[C@@H]1CN(CCCc2ccccc2)C[C@H]1CO)c1ccccc1 | Outer membrane protein OmpV (ompV, Vibrio cholerae serotype O1, UniProt P06111) | – | – | – | Kd | 123 nM |
| CC[C@H](C)[C@H](NC(=O)[C@H](CO)NC(=O)[C@H](Cc1ccc(O)cc1)NC(=O)[C@H](CC(=O)O)NC(=O)[C@H](CO)NC(=O)[C@@H](NC(=O)[C@H](Cc1ccccc1)NC(=O)[C@@H](NC(=O)CNC(=O)[C@@H]1CCCN1C(=O)[C@H](C)NC(=O)[C@@H](N)Cc1ccc(O)cc1)[C@@H](C)O)[C@@H](C)CC)C(=O)N[C@@H](C)C(=O)N[C@@H](CCSC)C(=O)N[C@@H](CC(=O)O)C(=O)N[C@@H](CCCCN)C(=O)N[C@H](C(=O)N[C@@H](Cc1c[nH]cn1)C(=O)N[C@@H](CCC(N)=O)C(=O)N[C@@H](CCC(N)=O)C(=O)N[C@@H](CC(=O)O)C(=O)N[C@@H](Cc1ccccc1)C(=O)N[C@H](C(=O)N[C@@H](CC(N)=O)C(=O)N[C@@H](Cc1c[nH]c2ccccc12)C(=O)N[C@@H](CC(C)C)C(=O)N[C@@H](CC(C)C)C(=O)N[C@@H](C)C(=O)N[C@@H](CCC(N)=O)C(=O)N[C@@H](CCCCN)C(=O)NCC(=O)N[C@@H](CCCCN)C(=O)N[C@@H](CCCCN)C(=O)N[C@@H](CC(N)=O)C(=O)N[C@@H](CC(=O)O)C(=O)N[C@@H](Cc1c[nH]c2ccccc12)C(=O)N[C@@H](CCCCN)C(=O)N[C@@H](Cc1c[nH]cn1)C(=O)N[C@@H](CC(N)=O)C(=O)N[C@H](C(=O)N[C@H](C(=O)N[C@@H](CCC(N)=O)C(=O)O)[C@@H](C)O)[C@@H](C)CC)C(C)C)[C@@H](C)CC | Gastric inhibitory polypeptide receptor | agonist | – | – | EC50 | 92 nM |
| CCCCCCc1ccc(Oc2ccccc2Br)c(O)c1 | Enoyl-[acyl-carrier-protein] reductase [NADH] (inhA, Mycobacterium tuberculosis, UniProt P9WGR1) | inhibitor, progress curve analysis | – | 20 °C, initial EI complex | Ki | 120 ± 1 nM |
| C/C=C(\N)C(=O)CCCCCCCC | cqsS | bioluminescence, agonist | Vibrio cholerae | – | EC50 | 2.6 nM |
| CCCCCn1cc(C(=O)c2ccc3ccccc3c2)c2ccccc21 | CNR1 | β-arrestin recruitment, agonist, BRET | – | – | EC50 | 372 nM |
| C[N+](C)(C)CCc1c[nH]c2cccc(O)c12 | 5-hydroxytryptamine receptor 3A (HTR3A, Homo sapiens, UniProt P46098) | ligand displacement, radioligand | – | cell membranes | Ki | > 10000 nM |
| CC(C)C[C@H](NC(=O)[C@@H]1CCCN1C(=O)[C@H](Cc1c[nH]c2ccccc12)NC(=O)[C@H](Cc1ccc(O)cc1)NC(=O)[C@@H](N)CO)C(=O)N[C@@H](CC(N)=O)C(=O)N[C@@H](CC(=O)O)C(=O)N[C@@H](Cc1ccc(O)cc1)C(=O)NCC(=O)N[C@@H](Cc1ccccc1)C(=O)N[C@@H](Cc1ccc(O)cc1)C(=O)N[C@H](C(N)=O)[C@@H](C)O | Angiotensin-converting enzyme 2 (ACE2, Homo sapiens, UniProt Q9BYF1) | – | – | – | Kd | 430000 nM |
| CCCCCc1cc(O)c2c(c1)OC(C)(C)[C@@H]1CCC(CO)=C[C@@H]21 | Fatty acid-binding protein, liver (FABP1, Homo sapiens, UniProt P07148) | binding, DAUDA displacement | – | added: DAUDA 0.5 µM | Kd | 860 nM and 900 nM |

Excerpt of the above:
| Compound | target | assay | test system | setting | quantity | result |
| --- | --- | --- | --- | --- | --- | --- |
| CSCC[C@@H](C=O)NC(=O)[C@H](CC(C)C)NC(=O)[C@H](CC(C)C)NC(C)=O | Replicase polyprotein 1ab, main protease (Human coronavirus OC43, UniProt P0C6X6) | enzyme activity, inhibitor | – | – | Ki | 230 nM |
| Nc1ncnc2c1c(-c1ccc3c(c1)CCN3C(=O)Cc1cccc(OC(F)(F)F)c1)cn2CCCNC(=O)CCc1ccc2n1[B-](F)(F)[N+]1=C(c3ccc[nH]3)C=CC1=C2 | Receptor-interacting serine/threonine-protein kinase 1 (RIPK1, Homo sapiens, UniProt Q13546) | binding, TR-FRET | – | – | Kd | 443 nM |
